# Published values of several laboratories.
# Numbered parts are unrelated; each lists some results of a single study. Substitutions count along the parent as printed.
# Chain of UniProt Q9HBY8 (whole entry, looked up): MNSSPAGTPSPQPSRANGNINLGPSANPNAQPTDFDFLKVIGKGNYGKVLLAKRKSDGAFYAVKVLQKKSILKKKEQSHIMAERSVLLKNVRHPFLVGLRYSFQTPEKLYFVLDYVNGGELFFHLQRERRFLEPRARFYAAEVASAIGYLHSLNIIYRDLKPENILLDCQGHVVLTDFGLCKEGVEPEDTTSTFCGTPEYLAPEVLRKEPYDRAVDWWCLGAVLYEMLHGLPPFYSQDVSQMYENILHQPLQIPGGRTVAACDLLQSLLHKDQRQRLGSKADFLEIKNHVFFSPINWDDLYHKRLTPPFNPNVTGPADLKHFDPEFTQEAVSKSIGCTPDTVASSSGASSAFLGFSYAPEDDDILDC

# Block 1
# Target: UBE2A UBC core domain (UniProt P49459)
# Chain of UniProt P49459 (whole entry, looked up): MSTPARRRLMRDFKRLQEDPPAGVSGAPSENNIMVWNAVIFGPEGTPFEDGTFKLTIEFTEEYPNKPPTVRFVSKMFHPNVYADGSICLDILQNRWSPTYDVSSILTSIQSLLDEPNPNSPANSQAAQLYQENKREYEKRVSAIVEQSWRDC
# Method: yeast two-hybrid
# Matrix: yeast
# Notes: mostly zero background
# Baseline: not given
# Reading: higher = stronger interaction
# B1: TRIM38 RING domain (UniProt O00635); chain STKKMMEEATCSICLSLMTNPVSINCGHSYCHLCITDFFKNPSQKQLRQETFCCPQCRAPFHMDSLRP
# B2: RNF5 RING domain (UniProt Q99942); chain ERGGAGATFECNICLETAREAVVSVCGHLYCWPCLHQWLETRPERQECPVCKAGISREKVVP
# B3: RNF112 RING domain (UniProt Q9ULX5); chain QPMAPRELPTCSICLERLRDPISLDCGHDFCIRCFSTHRLPGCEPPCCPECRKICKQKRGLR
# B4: UBE4A RING domain (UniProt Q14139); chain LQQQEEETYADACDEFLDPIMSTLMCDPVVLPSSRVTVDRSTIARHLLSDQTDPFNRSPLTMDQIRPNTELKEKIQRWLAERKQQKEQLE
# B5: TRIM10 RING domain (UniProt Q9UDY6); chain SVTSLADEVNCPICQGTLREPVTIDCGHNFCRACLTRYCEIPGPDLEESPTCPLCKEPFRPGSFRP
# B6: RNF149 RING domain (UniProt Q8NC42); chain EKGIDVDAENCAVCIENFKVKDIIRILPCKHIFHRICIDPWLLDHRTCPMCKLDVIKALGYW
Sequence,lacZ reporter activity
KIKDLNEHIVCCLCAGYFVDATTITECLHTFCKSCIVKYLQTSKYCPMCNIKIHETQPLL (PCGF1 RING domain (UniProt Q9BSM1)),0
B1 (TRIM38 RING domain),0
B2 (RNF5 RING domain),0
B3 (RNF112 RING domain),0
B4 (UBE4A RING domain),0
B5 (TRIM10 RING domain),0
QLQDEEDDSLCRICMDAVIDCVLLECGHMVTCTKCGKRMSECPICRQYVVRAVHVF (RNF34 RING domain (UniProt Q969K3)),0
SYEDKSNDFVCPICFDMIEEAYMTKCGHSFCYKCIHQSLEDNNRCPKCNYVVDNIDHLY (COP1 RING domain (UniProt Q8NHY2)),0
FLKKLEQSFMCVCCQELVYQPVTTECFHNVCKDCLQRSFKAQVFSCPACRHDLGQNYIMI (UHRF2 RING domain (UniProt Q96PU4)),0
B6 (RNF149 RING domain),0

# Block 2
# Target: Centromere-binding protein 1, full length, His-tagged (CBF1, Saccharomyces cerevisiae, UniProt P17106, residues 1-351)
# Chain of UniProt P17106 (whole entry, looked up): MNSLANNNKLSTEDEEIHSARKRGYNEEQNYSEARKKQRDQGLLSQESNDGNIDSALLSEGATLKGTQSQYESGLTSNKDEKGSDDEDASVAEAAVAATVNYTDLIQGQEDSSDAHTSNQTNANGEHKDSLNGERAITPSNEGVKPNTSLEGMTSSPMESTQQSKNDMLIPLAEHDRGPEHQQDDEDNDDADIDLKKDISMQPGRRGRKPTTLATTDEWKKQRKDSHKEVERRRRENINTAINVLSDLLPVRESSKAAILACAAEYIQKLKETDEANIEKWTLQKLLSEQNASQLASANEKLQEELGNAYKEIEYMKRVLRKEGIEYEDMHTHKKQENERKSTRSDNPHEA
# Method: competition protein-binding microarray
# Form: double-stranded DNA, one strand shown
# Matrix: in vitro
# Concentration: 2 µM
# Notes: whole 60-bp probe, lowest competitor level
# With: Pho4 competitor, 0.05 µM
# Reading: higher = stronger binding
# Shared flanks, not repeated: … GTCTTGATTCGCTTGACGCTGCTG
Oligonucleotide,fluorescence intensity
AAAAAAAGAAGAGATAACGTGGGTACAGCTAAAAAA,106 a.u.
CCCGAACTTTTTTAGCACGTGAAAATGGAGAAGTCT,2030 a.u.
CGTCCTAGTGATTGGGATGTGGGTGCCATGAGGAAG,89.2 a.u.
ACTTTCAACGTCCATCACGTGAACGACCGGCATTCT,2840 a.u.
TTGAACGGTGGTACCCACGCTGGTGGTGCTTTGGCT,46.3 a.u.
CTTGCCAGGTACCATCACGCACGGCATGTTTTCTTC,80.7 a.u.
AAAGCGGTAATTTGTCACGTGTTTTCACATATCTAT,7820 a.u.
ATGCTATGCCTATTGTTTATTTGGATTTTCCCATAT,92 a.u.

# Block 3
# Target: CCNE1, cyclin fold, Cln2 fusion (human)
# Method: yeast growth competition, sequencing
# Matrix: yeast
# Notes: strong parent motif
# Baseline: not given
# Reading: higher = stronger binding
# Starting sequence: viral docking peptide; KGVKRKLFAEDSS; partner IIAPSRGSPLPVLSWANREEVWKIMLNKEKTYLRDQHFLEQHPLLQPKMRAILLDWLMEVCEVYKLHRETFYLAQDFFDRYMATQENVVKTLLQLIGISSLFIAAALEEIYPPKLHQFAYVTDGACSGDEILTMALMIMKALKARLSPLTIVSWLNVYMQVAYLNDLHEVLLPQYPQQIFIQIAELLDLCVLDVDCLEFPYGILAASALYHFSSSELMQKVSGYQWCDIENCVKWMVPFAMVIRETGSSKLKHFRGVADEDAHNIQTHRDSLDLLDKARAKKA
Change,normalised enrichment score
KGVKEKLFAEDSS [R5E],0.226
KGVKRKLFAYDSS [E10Y],6.18
KGVKRYLFAEDSS [K6Y],3.09

# Mixed results
SMILES,target,test,setting,scale,endpoint,result
COC[C@H]1OC(=O)c2coc3c2[C@@]1(C)C1=C(C3=O)[C@@H]2CCC(=O)[C@@]2(C)C[C@H]1OC(C)=O,"Serine/threonine-protein kinase Sgk2 (SGK2, Homo sapiens, UniProt Q9HBY8)","enzyme activity, inhibitor",0.5 µM,baseline: control,remaining activity,99%

# Some of these lines once more (block 1):
Sequence,lacZ reporter activity
B4 (UBE4A RING domain),0
B5 (TRIM10 RING domain),0
QLQDEEDDSLCRICMDAVIDCVLLECGHMVTCTKCGKRMSECPICRQYVVRAVHVF (RNF34 RING domain (UniProt Q969K3)),0
SYEDKSNDFVCPICFDMIEEAYMTKCGHSFCYKCIHQSLEDNNRCPKCNYVVDNIDHLY (COP1 RING domain (UniProt Q8NHY2)),0
